Assay results collected from several papers.
A part holds a random share of what one study measured. Substitutions count along the parent as printed.

Set 1
Molecule: PhoQ, residues 284 288 289 292 302 303 ASVMEA
Technique: Sort-seq
Measured: YFP reporter
Medium: E. coli
Notes: PhoQ-PhoP variant library
With: 10 µM Mg2+
Relative to: high Mg2+ state
Direction: higher = stronger signaling
target	fold induction
PhoP, residues 12 14 15 18 19 HHYTI (Escherichia coli, UniProt P23836)	2.28
PhoP, residues 12 14 15 18 19 AYFRS (Escherichia coli, UniProt P23836)	12.8
PhoP, residues 12 14 15 18 19 SFCSL (Escherichia coli, UniProt P23836)	17.5

Set 2
Target: Histone acetyltransferase KAT6A, both winged helices, GST fusion (KAT6A, Homo sapiens, UniProt Q92794, residues 1-181)
Technique: protein binding microarray
Form: double-stranded DNA, one strand shown
Medium: in vitro
Concentration: not given
Notes: 8-mer, flanks averaged, mean of 2 arrays, mostly near background
Relative to: not given
Direction: higher = stronger binding
Target sequence (chain): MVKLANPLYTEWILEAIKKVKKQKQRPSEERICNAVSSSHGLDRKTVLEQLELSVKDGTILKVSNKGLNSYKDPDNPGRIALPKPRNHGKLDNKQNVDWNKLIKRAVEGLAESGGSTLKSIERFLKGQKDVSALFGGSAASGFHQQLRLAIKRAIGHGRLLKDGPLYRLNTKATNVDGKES
Oligonucleotide	E-score
CCTAGGGA	-0.208
CGCCCAAA	-0.0305
ACGGACTA	0.0918
CTGGAGAA	-0.145
CGCAACAG	0.0852
ACTCACCA	-0.22
GAGTCCCA	-0.126
GATTGTGA	-0.0296
GCATTCCC	0.0615
ACTATTGC	0.0788
AGGCTGCG	-0.0353

Set 3
Target: ABI1, truncated, D143A, DHFR fusion (Arabidopsis thaliana)
Technique: DHFR PCA, deep sequencing
Medium: yeast
Notes: methotrexate growth selection, single substitutions
With: (+)-ABA 17 µM
Relative to: wild-type fitted maximum
Direction: higher = stronger binding
Starting sequence: PYL1, truncated, DHFR fusion (Arabidopsis thaliana); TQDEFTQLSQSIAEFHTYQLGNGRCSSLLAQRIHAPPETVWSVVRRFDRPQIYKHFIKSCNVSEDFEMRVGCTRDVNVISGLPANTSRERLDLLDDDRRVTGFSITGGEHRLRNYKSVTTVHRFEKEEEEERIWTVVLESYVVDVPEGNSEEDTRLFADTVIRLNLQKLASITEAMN; partner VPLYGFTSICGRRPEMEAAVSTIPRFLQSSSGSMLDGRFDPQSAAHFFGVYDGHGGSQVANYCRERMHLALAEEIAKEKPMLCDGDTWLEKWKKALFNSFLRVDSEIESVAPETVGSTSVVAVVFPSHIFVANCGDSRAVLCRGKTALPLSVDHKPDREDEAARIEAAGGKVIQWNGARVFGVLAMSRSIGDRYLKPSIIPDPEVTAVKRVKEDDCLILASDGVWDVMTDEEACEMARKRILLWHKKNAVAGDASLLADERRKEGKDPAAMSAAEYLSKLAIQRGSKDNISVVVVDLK
Change	relative binding score [%]
E151Q	76.1
V137H	-23.7
S140V	0.422
D97S	90.2
Q19H	72.4
V121C	49.6
V118W	-12.3
S9I	60.3
L138E	-2.41
E174Y	35.6
Q51L	11.6
I172D	-16.4
M176G	84.1

Set 4
Target: CCNF, cyclin fold, Cln2 fusion (human)
Technique: yeast growth competition, sequencing
Medium: yeast
Notes: strong parent motif
Relative to: not given
Direction: higher = stronger binding
Starting sequence: CDT1 docking peptide (human); PPARRRLRLSVDE
Change	normalised enrichment score
PPARRRLRLSVAE [D12A]	9.27
PPARRRLRASVDE [L9A]	1.26
PPARKRLRLSVDE [R5K]	1.28
PPAARRLRLSVDE [R4A]	4.81
PPARRRLRLSADE [V11A]	8.57
PAARRRLRLSVDE [P2A]	7.68
PPARRALRLSVDE [R6A]	5.45

Excerpt of the above (set 2):
Oligonucleotide	E-score
ACTCACCA	-0.22
CGCCCAAA	-0.0305
CTGGAGAA	-0.145
